Assay results from different studies.
Lines come from different studies, so protocols differ. ± marks the error that the study gave.
aacA4: Aminoglycoside N(6')-acetyltransferase type 1 (aacA4, Klebsiella pneumoniae, UniProt P19650)
cyp121: Mycocyclosin synthase (cyp121, Mycobacterium tuberculosis, UniProt P9WPP7)
PDEB1: Class 1 phosphodiesterase PDEB1 (PDEB1, Trypanosoma brucei, UniProt Q8WQX9)

The chains behind the UniProt entries cited, without tags or fusion partners. Residues count along the entry.
UniProt P19650, whole entry: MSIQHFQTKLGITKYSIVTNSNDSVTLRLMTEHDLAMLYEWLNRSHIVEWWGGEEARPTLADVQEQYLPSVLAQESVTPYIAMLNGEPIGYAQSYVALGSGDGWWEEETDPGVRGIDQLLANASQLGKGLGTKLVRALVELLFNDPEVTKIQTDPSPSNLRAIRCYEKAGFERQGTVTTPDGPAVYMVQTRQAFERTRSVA
UniProt P9WPP7, whole entry: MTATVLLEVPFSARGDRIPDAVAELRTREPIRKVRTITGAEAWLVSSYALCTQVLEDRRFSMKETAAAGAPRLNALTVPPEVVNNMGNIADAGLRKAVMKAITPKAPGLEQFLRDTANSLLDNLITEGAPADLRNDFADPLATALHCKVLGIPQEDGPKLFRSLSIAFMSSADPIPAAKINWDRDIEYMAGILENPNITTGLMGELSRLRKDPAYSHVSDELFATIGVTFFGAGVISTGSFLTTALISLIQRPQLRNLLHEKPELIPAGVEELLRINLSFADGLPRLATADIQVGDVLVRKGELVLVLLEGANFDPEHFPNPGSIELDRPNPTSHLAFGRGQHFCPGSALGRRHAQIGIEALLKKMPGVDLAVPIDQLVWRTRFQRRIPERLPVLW
UniProt Q8WQX9, 1-930: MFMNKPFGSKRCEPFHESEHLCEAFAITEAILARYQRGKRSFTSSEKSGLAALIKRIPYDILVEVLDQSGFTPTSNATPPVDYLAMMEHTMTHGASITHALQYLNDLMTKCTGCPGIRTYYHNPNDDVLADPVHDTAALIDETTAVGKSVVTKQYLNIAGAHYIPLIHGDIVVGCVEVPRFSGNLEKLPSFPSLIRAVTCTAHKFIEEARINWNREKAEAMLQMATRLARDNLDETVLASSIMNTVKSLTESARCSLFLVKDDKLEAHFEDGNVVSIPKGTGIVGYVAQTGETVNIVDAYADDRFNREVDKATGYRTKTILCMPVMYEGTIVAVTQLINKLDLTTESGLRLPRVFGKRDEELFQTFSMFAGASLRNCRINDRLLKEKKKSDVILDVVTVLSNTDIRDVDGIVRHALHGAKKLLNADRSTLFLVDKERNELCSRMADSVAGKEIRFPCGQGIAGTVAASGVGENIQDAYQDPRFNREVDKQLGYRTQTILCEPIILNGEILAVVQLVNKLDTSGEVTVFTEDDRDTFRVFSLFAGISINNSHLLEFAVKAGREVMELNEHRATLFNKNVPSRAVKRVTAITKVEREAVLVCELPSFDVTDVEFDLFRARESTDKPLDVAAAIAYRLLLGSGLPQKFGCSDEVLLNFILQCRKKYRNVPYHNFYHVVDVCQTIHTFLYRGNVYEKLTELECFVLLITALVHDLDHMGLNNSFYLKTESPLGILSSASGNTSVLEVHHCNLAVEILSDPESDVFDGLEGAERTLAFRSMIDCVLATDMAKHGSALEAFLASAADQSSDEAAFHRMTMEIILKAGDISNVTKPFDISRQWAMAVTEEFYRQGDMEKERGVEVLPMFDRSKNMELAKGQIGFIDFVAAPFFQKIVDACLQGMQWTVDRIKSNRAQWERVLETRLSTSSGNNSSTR
UniProt P05067, 672-713 limits assumed: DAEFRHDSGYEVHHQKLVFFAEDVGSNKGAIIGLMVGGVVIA
UniProt O39928, 2424-3014 limits assumed: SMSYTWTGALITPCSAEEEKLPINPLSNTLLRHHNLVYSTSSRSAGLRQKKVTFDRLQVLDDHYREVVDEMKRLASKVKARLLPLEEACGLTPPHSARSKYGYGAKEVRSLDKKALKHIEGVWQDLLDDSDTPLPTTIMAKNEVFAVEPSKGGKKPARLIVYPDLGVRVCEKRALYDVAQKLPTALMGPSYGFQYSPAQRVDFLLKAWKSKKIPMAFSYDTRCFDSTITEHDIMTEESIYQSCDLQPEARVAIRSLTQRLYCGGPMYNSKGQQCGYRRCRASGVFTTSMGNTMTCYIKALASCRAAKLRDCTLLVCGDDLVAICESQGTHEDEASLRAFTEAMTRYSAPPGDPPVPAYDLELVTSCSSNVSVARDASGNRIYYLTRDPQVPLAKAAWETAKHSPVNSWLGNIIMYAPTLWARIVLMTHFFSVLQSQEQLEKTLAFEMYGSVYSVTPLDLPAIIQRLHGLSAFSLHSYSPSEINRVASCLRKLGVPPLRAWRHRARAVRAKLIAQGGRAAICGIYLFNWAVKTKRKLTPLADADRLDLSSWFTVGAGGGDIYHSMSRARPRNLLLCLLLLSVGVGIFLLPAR
UniProt Q06187, whole entry: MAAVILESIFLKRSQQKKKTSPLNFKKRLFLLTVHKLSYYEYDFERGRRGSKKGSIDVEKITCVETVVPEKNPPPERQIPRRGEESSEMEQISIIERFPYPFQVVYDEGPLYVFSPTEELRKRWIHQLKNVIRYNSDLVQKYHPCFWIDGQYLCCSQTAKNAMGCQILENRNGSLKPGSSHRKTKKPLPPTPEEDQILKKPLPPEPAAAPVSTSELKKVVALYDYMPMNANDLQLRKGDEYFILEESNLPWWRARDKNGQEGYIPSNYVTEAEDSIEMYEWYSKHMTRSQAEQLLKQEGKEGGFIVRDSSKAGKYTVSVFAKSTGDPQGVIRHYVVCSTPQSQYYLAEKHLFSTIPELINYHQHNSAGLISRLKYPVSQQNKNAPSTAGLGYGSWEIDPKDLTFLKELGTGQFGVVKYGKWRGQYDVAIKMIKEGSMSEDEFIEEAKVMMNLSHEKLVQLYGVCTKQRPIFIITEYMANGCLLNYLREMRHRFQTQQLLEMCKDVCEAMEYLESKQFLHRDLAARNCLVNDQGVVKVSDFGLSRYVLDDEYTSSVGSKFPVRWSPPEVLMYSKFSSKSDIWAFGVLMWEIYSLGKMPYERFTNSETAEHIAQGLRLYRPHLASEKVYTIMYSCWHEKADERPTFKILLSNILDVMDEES
UniProt Q9NZ08, whole entry K380T, looked up: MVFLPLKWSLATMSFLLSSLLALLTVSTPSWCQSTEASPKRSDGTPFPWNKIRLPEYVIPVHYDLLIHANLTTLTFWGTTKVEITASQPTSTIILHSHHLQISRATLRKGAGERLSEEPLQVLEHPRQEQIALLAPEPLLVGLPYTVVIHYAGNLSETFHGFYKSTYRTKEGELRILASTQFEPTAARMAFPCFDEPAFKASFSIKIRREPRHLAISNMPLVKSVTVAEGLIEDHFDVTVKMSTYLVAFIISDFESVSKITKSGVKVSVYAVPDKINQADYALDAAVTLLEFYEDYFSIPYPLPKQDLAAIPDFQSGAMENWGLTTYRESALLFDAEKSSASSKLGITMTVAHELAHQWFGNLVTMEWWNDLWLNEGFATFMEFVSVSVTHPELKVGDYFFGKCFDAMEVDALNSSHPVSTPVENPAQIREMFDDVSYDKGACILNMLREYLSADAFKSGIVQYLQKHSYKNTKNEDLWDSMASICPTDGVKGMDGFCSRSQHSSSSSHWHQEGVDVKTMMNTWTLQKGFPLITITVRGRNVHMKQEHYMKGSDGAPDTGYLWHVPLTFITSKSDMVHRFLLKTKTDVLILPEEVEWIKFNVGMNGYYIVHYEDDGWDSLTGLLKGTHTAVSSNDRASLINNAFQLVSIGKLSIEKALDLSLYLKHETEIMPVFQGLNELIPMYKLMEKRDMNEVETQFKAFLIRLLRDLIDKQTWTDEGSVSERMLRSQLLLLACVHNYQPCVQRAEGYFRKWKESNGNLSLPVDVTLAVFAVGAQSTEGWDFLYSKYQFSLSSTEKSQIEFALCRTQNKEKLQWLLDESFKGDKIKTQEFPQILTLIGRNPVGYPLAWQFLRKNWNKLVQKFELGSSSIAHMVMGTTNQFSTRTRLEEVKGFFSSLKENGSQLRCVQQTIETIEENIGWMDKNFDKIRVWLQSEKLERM

Compound | target | assay | test system | conditions | how to read | endpoint | value
CCCC[C@H](CN)NC[C@@H]1CCCN1C[C@@H](CO)NC[C@@H](NCCC(C)c1ccccc1)c1ccccc1 (stereo partly drawn) | aacA4 | acetyltransferase activity |  | 5 µM |  | inhibition | > 70%
COc1ccc2cc(-c3ccc(F)cc3)ccc2c1Cn1ccnc1 | cyp121 | binding |  |  |  | Kd | 1.4 ± 0.23 µM
CN(C)c1cccc(Oc2cnc(Nc3ccccc3)nc2)c1 | APP (Homo sapiens, UniProt P05067) | transmission electron microscopy |  | concentration not given, 26 h |  | amyloid-beta 42 fibrils and oligomers | decreased
CCCC[C@H](CN)NC[C@@H]1CCCN1C[C@@H](CO)NC[C@@H](NCCc1ccc(-c2ccccc2)cc1)c1ccccc1 | aacA4 | acetyltransferase activity |  | 5 µM |  | inhibition | > 70%
O=c1ccn([C@@H]2O[C@H](COP(=O)(O)OP(=O)(O)OP(=O)(O)O)[C@@H](O)[C@]2(F)Br)c(=O)[nH]1 | Genome polyprotein, NS5B polymerase (Hepatitis C virus genotype 5a, UniProt O39928) | polymerase activity, inhibitor | Hepatitis C virus, genotype 5a |  | relative to: genotype 1b | IC50 fold change | 1.9
COc1cccc(Nc2c(C(N)=O)cnc3ccc(-c4ccc5cnn(C)c5c4)cc23)c1 | PDEB1 | enzyme activity, inhibitor |  |  | relative to: Region D methyl analogue | potency loss | ~4 fold
CC(C)(O/N=C(\C(=O)NCB(O)O)c1csc(N)n1)C(=O)O | ADC-7 beta-lactamase (Acinetobacter baumannii, UniProt Q6DRA1) | ESI-MS intact protein |  | 15 min, added: enzyme 14 µM | relative to: free β-lactamase | mass shift | 1 Da
CCc1cc(-c2ccc3cnn(C)c3c2)cc2c(Nc3cccc(OC)c3)c(C(N)=O)cnc12 | PDEB1 | enzyme activity, inhibitor |  | 10 µM |  | inhibition | 79 ± 8.9%
Cc1ccc(NC(=O)Nc2ccc(-c3nc4ccc(-c5nc6ccc(C)c(S(=O)(=O)O)c6s5)cc4s3)cc2)cc1 | MBHA DNA substrate | SYBR Green I displacement |  | 100 µM |  | DNA bound | 90 ± 9%
C=CC(=O)Nc1cc(-n2c(=O)ccc3cnc4ccc(-c5cn[nH]c5)cc4c32)ccc1C | BTK (Homo sapiens, UniProt Q06187) | KinomeScan binding |  | 1 µM |  | remaining binding | 0.85%
CCC(c1ccc(-c2cc(F)ccc2F)cc1F)n1ccnc1 (stereo not drawn) | cyp121 | binding |  |  |  | Kd | 8 ± 1.3 µM
COc1ccc(C(=O)O)cc1S(=O)(=O)Nc1cc(C(F)(F)F)ccc1N1CCCCC1 | ERAP1 (Homo sapiens, UniProt Q9NZ08, K380T) | enzyme activity, inhibitor |  | concentration not given, added: Leu-AMC substrate |  | inhibition | ~50%

Excerpt of the above:
Compound | target | assay | test system | conditions | how to read | endpoint | value
CCc1cc(-c2ccc3cnn(C)c3c2)cc2c(Nc3cccc(OC)c3)c(C(N)=O)cnc12 | PDEB1 | enzyme activity, inhibitor |  | 10 µM |  | inhibition | 79 ± 8.9%
